Measured values of several laboratories.
Each line is one published result; not all experiments were run side by side. “And” joins repeats or separate records; there may be more than shown. ± gives the spread as reported.
CASP9: Caspase-9 (CASP9, Homo sapiens, UniProt P55211)
Lysophospholipase-like protein 1: Lysophospholipase-like protein 1 (Mus musculus, UniProt Q3UFF7)
CASP4: Caspase-4 (CASP4, Homo sapiens, UniProt P49662)
USP5: Ubiquitin carboxyl-terminal hydrolase 5 (USP5, Homo sapiens, UniProt P45974)

SMILES | target | assay | test system | conditions | how to read | endpoint | value
CC(=O)N[C@@H](CC(C)C)C(=O)N[C@@H](CCC(=O)O)C(=O)N[C@@H](CCC1CCCCC1)C(=O)N[C@@H](CC(=O)O)C(=O)COC(=O)c1c(C)cccc1C | CASP9 | enzyme activity, inhibitor | – | – | – | kinact/KI | 132000 M⁻¹ s⁻¹
C#CCCCCNC(=O)c1ccc(N(C(=O)C=C)c2ccc(Br)cc2)cc1 | Putative protein-lysine deacylase ABHD14B (Homo sapiens, UniProt Q96IU4) | mass spectrometry profiling, measured: ABHD14B | H460 cell lysate | 100 µM over 10 µM, UniProt Q96IU4 | baseline: high over low concentration | reactivity ratio | 1.85
CNC(=N)NCCC[C@H](NC(=O)[C@H](CC(C)C)NC(=O)NNC(=O)[C@H](Cc1ccccc1)NC(=O)[C@@H](NC(=O)[C@H](CC(N)=O)NC(=O)[C@@H]1C[C@@H](O)CN1C(=O)[C@@H](Cc1ccc(O)cc1)NC(C)=O)[C@@H](C)O)C(=O)N[C@@H](Cc1c[nH]c2ccccc12)C(N)=O | KiSS-1 receptor (KISS1R, Homo sapiens, UniProt Q969F8, R297A) | cAMP inhibition, agonist, GloSensor | HEK293 cells | 5 min, R297A mutant, together with: forskolin 10 µM | – | Emax | 10.2 ± 0.94%
CC(=O)N[C@@H](CCCNC(=N)N)C(=O)N[C@H](C(=O)N[C@@H](CCCCN)C(=O)N[C@@H](CO)C(=O)N[C@@H](CCCNC(=N)N)C(=O)N[C@H](C(=O)N[C@@H](Cc1c[nH]c2ccccc12)C(=O)N[C@@H](C)C(=O)N1Cc2ccccc2C[C@H]1C(N)=O)[C@@H](C)OP(=O)(O)O)[C@@H](C)O | 14-3-3 protein epsilon (Homo sapiens, UniProt P62258) | binding, SPR | – | – | – | kon | 1.29e+06 M⁻¹ s⁻¹
CC(=O)N[C@@H](Cc1c[nH]c2ccccc12)C(=O)N[C@@H](CCC(=O)O)C(=O)N[C@@H](Cc1c[nH]cn1)C(=O)N[C@@H](CC(=O)O)C(=O)COC(=O)c1c(C)cccc1C | CASP9 | enzyme activity, inhibitor | – | – | – | kinact/KI | 58300 M⁻¹ s⁻¹
CSCC[C@H](NC(=O)[C@H](CC(C)C)NC(=O)CNC(=O)[C@H](Cc1ccccc1)NC(=O)[C@H](Cc1ccccc1)NC(=O)[C@@H](N)CCC(N)=O)C(N)=O | TACR1 (Homo sapiens, UniProt P25103, Y287H) | agonist | – | concentration not given | – | Emax | 82 ± 19%
N#CN1CC[C@H](C(=O)Nc2nc3c(s2)CN(C(=O)Cn2cc(COCCOCCOCCOCCNC(=O)CCCC[C@@H]4SC[C@@H]5NC(=O)N[C@@H]54)nn2)CC3)C1 | Isochorismatase domain-containing protein 2 (ISOC2, Homo sapiens, UniProt Q96AB3) | probe binding, affinity probe, neutravidin pull-down LC-MS/MS | HEK293T, cell lysate | 5 µM, 1 h, single replicate, unit not given | higher = more pulled down | iBAQ abundance | 3.03e+08 and 3.15e+08 and 5.31e+08
CN(C)c1ccc2c(c1)C(=O)N(Cc1ccc(S(N)(=O)=O)cc1)C2=O | CA2 (Homo sapiens, UniProt P00918) | binding | – | – | – | emission maximum | 537 nm
CC(C)(C)c1ccc(NC(=O)c2cnn(-c3ccc([N+](=O)[O-])cc3)c2C(F)(F)F)cc1 | PTGS2 (Homo sapiens, UniProt P35354) | enzyme activity, inhibitor | – | – | baseline: COX-1 IC50 over COX-2 IC50 | selectivity ratio | 0.73
CCN1CCN(Cc2ccc(NC(=O)c3ccc(C)c(NC(=O)c4cncc(-c5cccs5)c4)c3)cc2C(F)(F)F)CC1 | ABL1 (Homo sapiens, UniProt P00519, Y253F) | binding, competition with immobilised ligand | – | 1 µM | – | remaining binding | 0.25%
Nc1ncnc2c1ncn2C1OC(CN(CCCC2CNCc3c2ccc(Cl)c3Cl)CCC(N)C(=O)O)C(O)C1O (mixture of isomers) | PNMT (Homo sapiens, UniProt P11086) | ITC | – | second site, SAH bound | – | ΔH-2 | 6.8 kcal/mol
CC(=O)c1cccc(S(=O)(=O)n2nc(SCc3ccc(Cl)cc3)nc2N)c1 | Lysophospholipase-like protein 1 | enzyme activity, activator, gel-based ABPP | purified protein | concentration not given, together with: FP-rhodamine | baseline: DMSO | probe labeling increase | 2.4 fold
CC(=O)NCCCC[C@H](NC(C)=O)C(=O)N[C@@H](CCCC(=O)O)C(=O)N[C@@H](C)C(=O)N[C@@H](CC(=O)O)C(=O)COC(=O)c1c(C)cccc1C | CASP9 | enzyme activity, inhibitor | – | – | – | kinact/KI | 84800 M⁻¹ s⁻¹
CCN(CC)C(CO)c1cccc2c(C)c(C)oc12 (stereo not drawn) | LPAR1 (Homo sapiens, UniProt Q92633, W210A) | G-protein dissociation, agonist, NanoBiT | HEK-293T | 10 nM, W210A mutant | baseline: baseline luminescence | fold change | 0.781 and 0.993 and 0.911 and 0.98 and 0.919
CC(=O)C12NC(C)(C)CC1(C)C(=O)C1=C2c2c(c3c4n2C(C)(C)CC2=C4C4(CC(C)(C)NC(C)(C4)C2=O)CC3(C)C)C(=O)C(C)(C)N1 (single isomer, unassigned; (+)) | KCNQ2 (Homo sapiens, UniProt O43526) | ion current, whole-cell patch clamp | HEK293T | 40 µM | baseline: before compound | relative current | 0.92 ± 0.12
CCCCCC=CC=C1C(=O)C=CC1CC=CCCCC(=O)O (stereo not drawn) | Replication factor C subunit 2 (Homo sapiens, UniProt P35250) | IA-probe cysteine labelling, covalent modifier, competitive isoTOP-ABPP | proteome, soluble, MDA-MB-231 | 100 µM, in vitro | baseline: DMSO over compound, higher = stronger blockade | isoTOP-ABPP ratio | 15
CC(C)C[C@H](NC(=O)[C@@H](NC(=O)[C@H](Cc1ccccc1)NC(=O)c1ccc(CN2CCOCC2)cc1)C(C)C)C(=O)N[C@@H](CCCCN(C)C1CC2CCC1C2)C(=O)N[C@@H](CO)C(N)=O (stereo partly drawn) | Chromobox protein homolog 8 (Homo sapiens, UniProt Q9HC52) | TR-FRET displacement | – | – | baseline: IC50 CBX7 over IC50 CBX8 | selectivity ratio | 70
CC[C@H](C)[C@@H]1NC(=O)[C@H](Cc2ccccc2)NC(=O)[C@H](CCC(=O)O)NC(=O)[C@H](CCCNC(=N)N)NC(=O)CNC(=O)[C@@H](NC(=O)[C@H](CC(C)C)NC(=O)[C@H](CCCNC(=N)N)NC(=O)[C@@H](NC(=O)CNC(=O)[C@H](Cc2ccc(O)cc2)NC(=O)[C@@H]2CCCN2C(=O)[C@H](C)NC(=O)[C@H](C)NC(=O)[C@@H](N)CCCNC(=N)N)C(C)C)CSSC[C@@H]2NC(=O)[C@@H](NC(=O)[C@H](CO)NC(=O)[C@H](CO)NC(=O)[C@H](CO)NC(=O)[C@H](CC(C)C)NC(=O)CNC(=O)[C@H](C)NC(=O)[C@H](CC(C)C)NC(=O)[C@@H](NC(=O)[C@@H](N)CC(=O)O)C(C)C)CSSC[C@H](NC(=O)CNC(=O)[C@H](Cc3c[nH]c4ccccc34)NC(=O)[C@H](CCCCN)NC2=O)C(=O)N[C@@H](CO)C(=O)N[C@@H](CCCCN)C(=O)N[C@@H](CO)C(=O)N[C@@H](CCC(=O)O)C(=O)N[C@@H]([C@@H](C)CC)C(=O)N[C@@H](CO)C(=O)N[C@@H](CO)C(=O)N[C@@H](CC(C)C)C(=O)N[C@H](C(=O)O)CSSC[C@@H](C(=O)NCC(=O)NCC(=O)N[C@@H](CO)C(=O)N[C@@H](CCCNC(=N)N)C(=O)N[C@@H](Cc2c[nH]c3ccccc23)C(=O)O)NC(=O)[C@H]([C@@H](C)O)NC(=O)[C@H](Cc2ccccc2)NC(=O)[C@H]([C@@H](C)CC)NC(=O)[C@H](C(C)C)NC(=O)[C@H](C)NC(=O)[C@H](CCCNC(=N)N)NC1=O | RXFP4 (Homo sapiens, UniProt Q8TDU9, T121A) | – | – | T121A mutant | baseline: wild type | ΔpEC50 | inactive
O=C1c2sc(-c3ccc(N4CCC(F)C4)nc3F)nc2CCN1c1cccnc1 (stereo not drawn) | TAR DNA-binding protein 43, aggregated (TARDBP, Homo sapiens, UniProt Q13148) | saturation autoradiography | human, FTLD-TDP type A brain sections | 1.86 nM | – | specific binding | 26 nM
CC(=O)N[C@@H](CCC(C)C)C(=O)N[C@H](C(=O)N[C@@H](CO)C(=O)N[C@@H](CC(=O)O)C(=O)COC(=O)c1c(C)cccc1C)C(C)(C)C | CASP4 | enzyme activity, inhibitor | – | – | – | kinact/KI | 31600 M⁻¹ s⁻¹
CC1CCCc2nc(N)nc(N)c21 (stereo not drawn) | folA (Escherichia coli, UniProt P0ABQ4) | – | – | concentration not given, ternary complex with NADPH | – | exchange rate kex | 390 ± 47.3 s⁻¹
CCOC(=O)N1CCN(C(=S)Nc2ccc3nsnc3c2)CC1 | USP5 | enzyme activity, inhibitor | – | 17 µM | – | inhibition | 74%
CC(=O)N[C@@H](CC(=O)O)C(=O)N[C@@H](C)C(=O)N[C@@H](Cc1ccc(N)cc1)C(=O)N[C@@H](CC(=O)O)C(=O)COC(=O)c1c(C)cccc1C | CASP9 | enzyme activity, inhibitor | – | – | – | kinact/KI | 4800 M⁻¹ s⁻¹
COC(=O)c1cccc(S(=O)(=O)n2nc(SCc3ccc(Cl)cc3)nc2N)c1 | Lysophospholipase-like protein 1 | enzyme activity, activator, gel-based ABPP | purified protein | concentration not given, together with: FP-rhodamine | baseline: DMSO | probe labeling increase | 3.1 fold
CC(C)Oc1cc(Cl)ccc1CNc1cc(-c2ccccc2)nc2ncnn12 | GPR3 (Homo sapiens, UniProt P46089) | cAMP reporter | human cells | 100 nM | higher is more cAMP | cAMP luminescence | 27700 a.u. and 11200 a.u. and 29400 a.u. and 33500 a.u. and 18000 a.u. and 25200 a.u.
NC(=S)Cc1nc2ccccc2s1 | USP5 | enzyme activity, inhibitor | – | 17 µM | – | inhibition | 29%
CC(=O)N[C@H](C(=O)N[C@@H](CCC(=O)O)C(=O)N[C@@H](C)C(=O)N[C@@H](CC(=O)O)C(=O)COC(=O)c1c(C)cccc1C)C(C)C | CASP4 | enzyme activity, inhibitor | – | – | – | kinact/KI | 34400 M⁻¹ s⁻¹
C#CCOC(=O)[C@@]1(C)C=C(C(=O)OC(C)(C)C)C(=O)CC1 | MAPK8 (Homo sapiens, UniProt P45983) | D-peptide binding, inhibitor, FP peptide displacement | – | 25 µM | lower is stronger displacement | fraction bound | 0.696
C=C[C@H]1CN([C@@H](C)c2cn(CCCNC(=O)CCc3ccc4n3[B-](F)(F)[N+]3=C(c5ccc[nH]5)C=CC3=C4)nn2)C(=O)[C@@H]2CCC[C@H]1N2S(=O)(=O)c1cc(Cl)cc(Cl)c1 | FKBP4 (Homo sapiens, UniProt Q02790) | tracer binding, NanoBRET tracer titration | HEK293T transiently expressing FKBP4 | – | – | Hill slope | 1 ± 0.1
COC(=O)c1cccc(C(=O)c2n[nH]c3ccccc23)c1 | AHR (Homo sapiens, UniProt P35869) | reporter gene, agonist, XRE luciferase | HepG2 | – | baseline: ITE | Emax | 74 ± 8%
